# Published values from different studies.
# A part holds a random share of what one study measured. Substitutions count along the parent as printed.

# Sample 1
# Target: Interferon regulatory factor 5, full length, phosphomimetic (IRF5, Homo sapiens, UniProt Q13568-2, residues 1-514, K96S/S451D/S453D/S456D/S462D)
# Technique: protein-binding microarray
# Form: double-stranded DNA, one strand shown
# Matrix: in vitro
# Concentration: 250 nM
# Setting: 60-bp whole probe
# With: salmon DNA 0.4 mg/ml
# Reference: random background probes
# Direction: higher = stronger binding
# Constant ends, left off below: GCCTAGCAC … GTCTTGATTCGCTTGACGCTGCTG
Sequence,log fluorescence
TCACATTTCTGTTTTTGACTGTGCTAG,2.24 z-score
ATAGGTATCGACACTGGGTTAGTGCTA,1.92 z-score
TTAGGTATGCTTTTCCTTTAGTGCTAG,0.249 z-score
TCATGTCAACTTTCTCTGACTGTGCTA,1.04 z-score
TTAGGTTTCGATTCCGGTTAGTGCTAG,9.38 z-score
TCAGTTTCTGATATGGTACTGTGCTAG,3.32 z-score
GTCGATCTCAGTTTCGAGACGTGCTAG,5.63 z-score
TCAGGTATCGGGTATCGGTTAGTGCTA,6.58 z-score

# Sample 2
# Target: NFE2L1, bZIP domain (human)
# Technique: DHFR protein complementation
# Matrix: yeast
# Setting: single substitutions, most at no-binding floor
# Reference: wild-type JUN-FOS pair
# Direction: higher = stronger binding
# Starting sequence: JUN, bZIP domain (human); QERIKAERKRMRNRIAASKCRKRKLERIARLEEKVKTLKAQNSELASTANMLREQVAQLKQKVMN; partner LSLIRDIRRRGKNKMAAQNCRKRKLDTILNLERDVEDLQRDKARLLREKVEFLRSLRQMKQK
Substitution,binding fitness [natural log]
L38N,-1.48
E54P,-1.54
A29Y,-1.51
A29C,-1.45
V35D,-1.47
L38T,-1.36
A46E,-1.56
L31A,-1.46

# Sample 3
# Target: Transcriptional repressor CTCF (CTCF, Homo sapiens, UniProt P49711, residues 1-727, full length assumed)
# Sequence of UniProt P49711 (whole entry, looked up): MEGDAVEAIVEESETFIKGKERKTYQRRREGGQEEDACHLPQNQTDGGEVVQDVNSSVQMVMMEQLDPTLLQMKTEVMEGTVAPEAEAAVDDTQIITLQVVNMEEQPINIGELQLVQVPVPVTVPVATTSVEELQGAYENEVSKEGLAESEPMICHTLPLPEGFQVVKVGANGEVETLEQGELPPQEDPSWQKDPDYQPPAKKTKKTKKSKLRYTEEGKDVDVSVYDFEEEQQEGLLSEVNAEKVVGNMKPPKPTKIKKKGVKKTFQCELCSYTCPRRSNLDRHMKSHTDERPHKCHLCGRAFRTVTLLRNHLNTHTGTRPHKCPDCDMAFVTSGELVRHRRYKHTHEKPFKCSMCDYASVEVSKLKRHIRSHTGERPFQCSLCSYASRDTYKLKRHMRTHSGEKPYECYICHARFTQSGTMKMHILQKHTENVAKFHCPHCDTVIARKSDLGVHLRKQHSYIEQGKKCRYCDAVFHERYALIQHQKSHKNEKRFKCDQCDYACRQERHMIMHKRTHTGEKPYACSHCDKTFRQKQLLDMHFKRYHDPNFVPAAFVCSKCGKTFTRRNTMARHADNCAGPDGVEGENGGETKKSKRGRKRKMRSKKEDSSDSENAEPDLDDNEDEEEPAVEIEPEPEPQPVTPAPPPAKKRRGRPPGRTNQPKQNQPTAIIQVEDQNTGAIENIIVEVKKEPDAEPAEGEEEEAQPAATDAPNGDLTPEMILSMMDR
# Technique: protein-binding microarray
# Form: double-stranded DNA, one strand shown
# Matrix: in vitro
# Concentration: not given
# Setting: k-mer, scored over probes, only values ≥0.25
# Direction: higher = stronger binding
Sequence,E-score
GGGCGCTA,0.285
AATAAATA,0.375
CTAGTGGC,0.369
ACCTATAT,0.278
ACATAATC,0.267
ATAGATAA,0.31
CTATATAC,0.281
ATAGTAGA,0.286

# Mixed results
# Starting sequence: PafA, mature enzyme, eGFP fusion (Elizabethkingia meningoseptica, UniProt Q9KJX5); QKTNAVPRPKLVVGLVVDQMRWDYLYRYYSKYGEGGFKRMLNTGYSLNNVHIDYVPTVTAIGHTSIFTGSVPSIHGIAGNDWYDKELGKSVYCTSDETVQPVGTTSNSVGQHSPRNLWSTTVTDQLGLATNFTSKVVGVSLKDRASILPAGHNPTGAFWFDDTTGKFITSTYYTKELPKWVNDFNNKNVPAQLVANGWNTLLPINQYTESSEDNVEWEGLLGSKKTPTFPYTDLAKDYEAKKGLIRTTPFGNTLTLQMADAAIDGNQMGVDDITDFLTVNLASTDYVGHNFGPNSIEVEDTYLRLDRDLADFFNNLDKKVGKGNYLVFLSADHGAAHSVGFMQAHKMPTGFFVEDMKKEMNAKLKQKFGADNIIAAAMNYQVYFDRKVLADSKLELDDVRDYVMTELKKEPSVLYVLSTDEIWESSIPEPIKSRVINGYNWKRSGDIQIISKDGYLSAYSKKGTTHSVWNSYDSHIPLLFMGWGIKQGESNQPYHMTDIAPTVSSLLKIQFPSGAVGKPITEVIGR
Substitution,target,test,test system,conditions,scale,quantity,value
W118G,"tungstate, free oxyanion",microfluidic competitive inhibition,"in vitro, cell-free expressed","not given, derived from inhibition constants, unchanged parent 2230 nM",lower = stronger binding,oxyanion analog dissociation constant,893 nM

# Some of these lines once more (sample 3):
Sequence,E-score
GGGCGCTA,0.285
ACCTATAT,0.278
AATAAATA,0.375
